Measurements collected from several papers.
Lines come from different studies, so protocols differ.
Organism: Pseudomonas aeruginosa

For CC(C)C[C@@H]1NC(=O)[C@@H](CC(C)C)NC(=O)[C@H](CCN)NC(=O)[C@@H](NC(=O)[C@H](CCN)NC(=O)[C@@H](NC(=O)CCOCCOCCOCCN=[N+]=[N-])[C@@H](C)O)CCNC(=O)[C@H]([C@@H](C)O)NC(=O)[C@H](CCN)NC(=O)[C@H](CCN)NC1=O, the MIC was 16 µg/mL (broth microdilution; ATCC 10145, cation-adjusted Mueller-Hinton broth; 18 to 20 h, 37 °C, 0.002% polysorbate 80).
CC[C@H]1OC(=O)[C@H](C)[C@@H](OC(=O)Cc2ccc(N)cc2)[C@H](C)[C@@H](O[C@@H]2O[C@H](C)C[C@H](N(C)C)[C@H]2O)[C@](C)(OC)C[C@@H](C)C(=O)[C@H](C)[C@@H](O)[C@]1(C)O gave an MIC of greater than 32 µg/mL (microbial growth; ATCC27853).
With CNC(C)C1CCC(N)C(OC2C(N)CC(N)C(OC3OCC(C)(O)C(NC)C3O)C2O)O1 (stereo not drawn) the MIC was 1 µM (microbial growth, broth dilution; PAO1).
With COc1ccc2ccc(O)c(/C=N/[C@H]3CCCC[C@H]3/N=C/c3ccc(F)cc3O)c2c1 the MIC was greater than 40 µM (microbial growth, broth dilution).
CC[C@H]1OC(=O)[C@H](C)[C@@H](OC(=O)Cc2cccc(Cl)c2)[C@H](C)[C@@H](O[C@@H]2O[C@H](C)C[C@H](N(C)C)[C@H]2O)[C@](C)(OC)C[C@@H](C)C(=O)[C@H](C)[C@@H](O)[C@]1(C)O has an MIC of greater than 32 µg/mL (PAO397, five efflux pumps deleted).
With COc1c(C)c(OCc2ccccc2)c(C)c(OCc2ccccc2)c1C(=O)/C=C/c1ccccc1 the MIC was 5000 µg/mL (microbial growth, broth dilution; ATCC27853).
CCn1cc(C(=O)O)c(=O)c2cc(F)c(N3CCNCC3)cc21 gave an MIC of 0.125 µg/mL (microbial growth, broth dilution; PAO1).
CCCCCC[N+](C)(C)CCCCCCCCCCOc1cc(OCCCCCCCCCC[N+](C)(C)CCCCCC)cc(OCCCCCCCCCC[N+](C)(C)CCCCCC)c1.[Br-].[Br-].[Br-] has an MIC of 8 µM (PAO1).
For COc1c(C)c(O)c(C(=O)C=Cc2ccccc2)c(OC)c1C, the MIC was 5000 µg/mL (microbial growth, broth dilution; ATCC27853).
C#CCNC(=O)C1(O/N=C(\C(=O)N[C@@H]2C(=O)N(OS(=O)(=O)O)C2(C)C)c2csc(N)n2)CC1 gave an MIC of 64 µg/mL (microbial growth, agar dilution; PAO1).
CC[C@H]1OC(=O)[C@H](C)[C@@H](OC(=O)Cc2ccc([N+](=O)[O-])cc2)[C@H](C)[C@@H](O[C@@H]2O[C@H](C)C[C@H](N(C)C)[C@H]2O)[C@](C)(OC)C[C@@H](C)C(=O)[C@H](C)[C@@H](O)[C@]1(C)O gave an MIC of 32 µg/mL (PAO397, five efflux pumps deleted).
For CCOc1c(NC(=O)c2ccc(NC(=O)[C@H](Cc3c[nH]nn3)NC(=O)c3ccc(NC(=O)/C(C)=C/c4ccc(O)cc4)cc3)cc2)ccc(C(=O)Nc2ccc(C(=O)O)c(O)c2OC)c1O, the MIC was 64 µg/mL (broth microdilution; ciprofloxacin-resistant).
O=c1c(O)ccc(-c2ccccc2)cc1O has an MIC of greater than 71.4 µM (broth microdilution; ATCC 27853, CAMHB; 16 to 24 h, ≥80% growth inhibition).
COc1ccc2ccc(O)c(/C=N/[C@H]3CCCC[C@H]3/N=C/c3cccc(F)c3O)c2c1 gave an MIC of greater than 40 µM (microbial growth, broth dilution; clinical isolate).
For CCCCCCCCCCn1cc[n+](CCCCCCCCOc2cc(OCCCCCCCC[n+]3ccn(CCCCCCCCCC)c3)cc(OCCCCCCCC[n+]3ccn(CCCCCCCCCC)c3)c2)c1.[Br-].[Br-].[Br-], the MIC was 32 µM (PAO1).
With COc1c(NC(=O)c2ccc(NC(=O)c3ccc(NC(=O)[C@H](Cc4c[nH]nn4)NC(=O)c4ccc(NC(=O)/C(C)=C/c5ccc(O)cc5)cc4)cc3)cc2O)ccc(C(=O)O)c1O the MIC was 32 µg/mL (broth microdilution; ciprofloxacin-resistant).
The MIC of CCCCCCCCn1cc[n+](CCCCCCOc2cc(OCCCCCC[n+]3ccn(CCCCCCCC)c3)cc(OCCCCCC[n+]3ccn(CCCCCCCC)c3)c2)c1.[Br-].[Br-].[Br-] is reported as 2 µM (PAO1).
The MIC of CCOc1c(NC(=O)c2ccc(NC(=O)c3ccc(NC(=O)[C@H](Cc4c[nH]nn4)NC(=O)c4ccc(NC(=O)/C(C)=C/c5ccc(O)cc5)cc4)cc3)c(OC)c2O)ccc(C(=O)O)c1O is reported as 4 µg/mL (broth microdilution; ciprofloxacin-resistant).
With C=CCO/N=C(\C(=O)N[C@@H]1C(=O)N(OS(=O)(=O)O)C1(C)C)c1csc(N)n1 the MIC was 64 µg/mL (agar dilution; ATCC 27853).
COc1ccc2ccc(O)c(/C=N/[C@H]3CCCC[C@H]3/N=C/c3cc(C(C)(C)C)cc(C(C)(C)C)c3O)c2c1 has an MIC of greater than 40 µM (microbial growth, broth dilution).
For CC(C)C[C@@H]1NC(=O)[C@@H](CC(C)C)NC(=O)[C@H](CCN)NC(=O)[C@@H](NC(=O)[C@H](CCN)NC(=O)[C@@H](N)[C@@H](C)O)CCNC(=O)[C@H]([C@@H](C)O)NC(=O)[C@H](CCN)NC(=O)[C@H](CCN)NC1=O, the MIC was greater than 138 µM (broth microdilution; ATCC 35218, cation-adjusted Mueller-Hinton broth).
The MIC of CC[C@H]1OC(=O)[C@H](C)[C@@H](OC(=O)Cc2c(F)cccc2F)[C@H](C)[C@@H](O[C@@H]2O[C@H](C)C[C@H](N(C)C)[C@H]2O)[C@](C)(OC)C[C@@H](C)C(=O)[C@H](C)[C@@H](O)[C@]1(C)O is reported as 64 µM (DSM 50071; added: colistin sulfate at 0.5 x MIC).
For O=C(O)c1cn(C2CC2)c2cc(N3CCNCC3)c(F)cc2c1=O, the MIC was 0.03 µg/mL (broth microdilution; pyocyanin non-producing).
With CC1(C)C(NC(=O)C(=NOC2(C(=O)O)CCC2)c2csc(N)n2)C(=O)N1OS(=O)(=O)O (stereo not drawn) the MIC was 4 µg/mL (agar dilution; ATCC 27853).
